Experimental data gathered from unrelated publications.
Each line is one published result; not all experiments were run side by side. Several values in a cell are separate wells, animals, samples, runs or records. ± marks the error that the study gave.
rep main protease: Replicase polyprotein 1ab, main protease (rep, Severe acute respiratory syndrome coronavirus 2, UniProt P0DTD1)
rep nsp12 RdRp: Replicase polyprotein 1ab, nsp12 RdRp (rep, Severe acute respiratory syndrome coronavirus 2, UniProt P0DTD1)
rep nsp13 helicase: Replicase polyprotein 1ab, nsp13 helicase (rep, Severe acute respiratory syndrome coronavirus 2, UniProt P0DTD1)
rep papain-like protease: Replicase polyprotein 1ab, papain-like protease (rep, Severe acute respiratory syndrome coronavirus 2, UniProt P0DTD1)

Compound	tested on	assay	test system	conditions	quantity	result
C=CS(=O)(=O)N(c1ccc(C(C)(C)C)cc1)C(C(=O)NC1CCCCC1)c1cccnc1 (stereo not shown)	rep main protease	inhibitor, ITC, two-step reversible model	–	–	Ki	4.5 ± 0.3 µM
CC(C)C[C@H](NC(=O)OCc1ccccc1)C(=O)N[C@@H](CC(C)C)C(=O)N[C@@H](CC1CCNC1=O)C(=O)C(=O)NC1CC1 (stereo partly shown)	rep main protease	enzyme activity, inhibitor, FRET	–	–	Ki	0.0132 µM
Nc1nc(F)nc2c1ncn2[C@@H]1O[C@H](COP(=O)(O)O)[C@@H](O)[C@@H]1O	rep nsp12 RdRp	RdRp activity, inhibitor	HEK293T	24 h, added: nsp7 and nsp8	EC50	0.93 µM
CC(C)(C)c1ccc(N(Cc2cc(Cl)cs2)C(=O)Cc2cncc3ccccc23)cc1	rep main protease	enzyme activity, inhibitor	–	–	Ki	1.9 µM
O=[N+]([O-])c1cc(Cc2ccccc2)cc(/C=N/c2ccc(N3CCOCC3)cc2)c1O	rep nsp13 helicase	helicase ATPase activity, inhibitor, Kinase-Glo luminescence	–	60 min, added: 2.5 µM ATP	IC50	3 µM
CCC(C(=O)Nc1cc(NC2CNC2)ccc1C)n1cc(Cl)cc2nc(SCc3ccc(F)cc3)nc1-2 (stereo not shown)	rep papain-like protease	binding	–	–	Kd	0.134 ± 0.012 µM
Nc1ncnc2c1c(I)cn2[C@@H]1O[C@H](CO)[C@@H](O)[C@H]1O	rep nsp12 RdRp	RdRp activity, inhibitor	HEK293T	24 h, added: nsp7 and nsp8	EC50	0.75 µM
Cc1cccc(C)c1OCC(=O)N[C@@H](Cc1ccccc1)[C@@H](O)C[C@H](Cc1ccccc1)NC(=O)[C@H](C(C)C)N1CCCNC1=O	rep main protease	reporter gene (mKate2), inhibitor	–	20 µM	inhibition	-0.699%
CCC(C(=O)Nc1cc(NC2CCNC2)ccc1C)n1cc(Cl)cc2nc(SCc3ccc(F)cc3)nc1-2 (stereo not shown)	rep papain-like protease	binding	–	–	Kd	0.166 ± 0.013 µM
Nc1ccn([C@@H]2O[C@H](COP(=O)(O)OP(=O)(O)OP(=O)(O)O)[C@@H](O)[C@H]2O)c(=O)n1	Replicase polyprotein 1ab, nsp12 with nsp7/nsp8 (rep, Severe acute respiratory syndrome coronavirus 2, UniProt P0DTD1)	nucleotide binding, substrate	–	templating base G	Kd	58.7 µM and 59 µM
Cc1ccc(C2CC(=O)N3CN(c4ccc(Br)cc4)CSC3=C2C#N)o1 (stereo not shown)	rep nsp13 helicase	helicase ATPase activity, inhibitor, Kinase-Glo luminescence	–	60 min, added: 2.5 µM ATP	IC50	66 µM
CN(C)c1ccc(N(Cc2cc(Cl)cs2)C(=O)Cc2cncc3ccccc23)cc1	rep main protease	enzyme activity, inhibitor	–	–	Ki	2.1 µM
CC(=O)NC1=NC(=O)/C(=C/c2cc(C)n(-c3cccc(C(=O)O)c3)c2C)S1	rep nsp13 helicase	helicase ATPase activity, inhibitor, Kinase-Glo luminescence	–	–	IC50	> 150 µM
Nc1nc2c(ncn2[C@H]2C[C@H](O)[C@@H](CO)O2)c(=S)[nH]1	rep nsp12 RdRp	RdRp activity, inhibitor	HEK293T	24 h, added: nsp7 and nsp8	EC50	1.08 µM
CC[C@H](NC(=O)OCc1ccccc1)C(=O)N[C@H](C(=O)N[C@@H](CC(C)C)C(=O)N(C)N(C#N)CCC(N)=O)C(C)(C)C	rep main protease	enzyme activity, inhibitor	–	–	Ki	0.0235 µM
Cc1cccc(NC2=NC(=O)/C(=C/C=C/c3ccco3)S2)c1C	rep nsp13 helicase	helicase ATPase activity, inhibitor, Kinase-Glo luminescence	–	60 min, added: 2.5 µM ATP	IC50	3 µM

Compound	tested on	assay	test system	conditions	quantity	result
CCC(C(=O)Nc1cc(NC2CCNC2)ccc1C)n1cccc2nc(SCc3ccc(F)cc3)nc1-2 (stereo not shown)	rep papain-like protease	binding	–	–	Kd	0.253 ± 0.02 µM
C[C@H](CCC(=O)NCCS(=O)(=O)[O-])[C@H]1CC[C@H]2[C@@H]3[C@@H](O)C[C@@H]4C[C@H](O)CC[C@]4(C)[C@H]3CC[C@]12C.[Na+]	rep main protease	reporter gene (Gaussia luciferase), inhibitor	–	20 µM	inhibition	1.7%
O=c1c(O)c(-c2ccc(O)cc2)oc2c(O)c(O)cc(O)c12	rep main protease	inactivator	–	37 °C	Ki	7.46 µM
Cc1nn(-c2ccc(Cl)cc2)c2c1C(c1ccc(Cl)cc1Cl)C(C#N)=C(N)O2 (stereo not shown)	rep main protease	3CL protease activity	–	120 min	IC50	437 µM
Nc1ncnc2c([C@@H]3N[C@H](CO)[C@@H](O)[C@H]3O)c[nH]c12	Marburg virus	viral replication, antibody staining	HeLa, Musoke	50 µM, 1 h	infected cells	0.8%
Oc1c(Br)cc(Br)cc1/C=N/NC(=S)N[C@H]1CC2C=CC1C2 (stereo partly shown)	rep nsp13 helicase	helicase ATPase activity, inhibitor, Kinase-Glo luminescence	–	60 min, added: 2.5 µM ATP	IC50	6 µM
CC[C@H](C)[C@H](NC(=O)[C@H](CC(C)C)NC(=O)[C@H](Cc1c[nH]c2ccccc12)NC(=O)[C@H](CCC(N)=O)NC(=O)[C@@H](NC(=O)[C@H](Cc1ccccc1)NC(=O)[C@H](C)NC(=O)[C@H](CCCCNC(=O)COCCOCCNC(=O)COCCOCCNC(=O)CC[C@H](NC(=O)CCCCCCCCCCCCCCCCCCC(=O)O)C(=O)O)NC(=O)[C@H](CCC(N)=O)NC(=O)[C@H](C)NC(=O)[C@@H](NC(=O)[C@H](CCCCN)NC(=O)[C@H](CC(=O)O)NC(=O)[C@H](CC(C)C)NC(=O)C(C)(C)NC(=O)[C@@H](NC(=O)[C@H](CO)NC(=O)[C@H](Cc1ccc(O)cc1)NC(=O)[C@H](CC(=O)O)NC(=O)[C@H](CO)NC(=O)[C@@H](NC(=O)[C@H](Cc1ccccc1)NC(=O)[C@@H](NC(=O)CNC(=O)[C@H](CCC(=O)O)NC(=O)C(C)(C)NC(=O)[C@@H](N)Cc1ccc(O)cc1)[C@@H](C)O)[C@@H](C)O)[C@@H](C)CC)[C@@H](C)CC)C(C)C)C(=O)N[C@@H](C)C(=O)NCC(=O)NCC(=O)N1CCC[C@H]1C(=O)N[C@@H](CO)C(=O)N[C@@H](CO)C(=O)NCC(=O)N[C@@H](C)C(=O)N1CCC[C@H]1C(=O)N1CCC[C@H]1C(=O)N1CCC[C@H]1C(=O)N[C@@H](CO)C(N)=O	–	–	healthy subjects, single ascending dose	0.25 mg, baseline	serum ALT	17.8 ± 3.6 U/L
O=C(O)c1cc(O)c(O)c(O)c1	rep main protease	microscale thermophoresis	–	63 min	Kd	1.14 µM
Nc1nc(F)nc2c1ncn2[C@@H]1O[C@H](CO)[C@@H](O)[C@@H]1O	Replicase polyprotein 1ab, nsp12 with nsp14/nsp10 (rep, Severe acute respiratory syndrome coronavirus 2, UniProt P0DTD1)	RdRp activity, inhibitor, CoV-RdRp-Gluc reporter	HEK293T, SARS-CoV-2	with proofreading, added: nsp7, nsp8, nsp10 and nsp14	EC50	12.2 µM
Cc1ccc(-n2cccc2/C=C2\C(=N)N3N=C(c4ccco4)SC3=NC2=O)cc1	rep nsp13 helicase	helicase ATPase activity, inhibitor, Kinase-Glo luminescence	–	60 min, added: 2.5 µM ATP	IC50	3 µM
CC(=O)Nc1ccc(-c2cnc(/N=C\c3cc4ccccc4nc3Cl)s2)cc1	rep papain-like protease	papain-like protease activity, inhibitor	SARS-CoV-2	15 min, 37 °C, added: substrate 40 µM	Ki	1.2 µM and < 2 µM
Cc1ccc(C(=O)O)cc1-c1ccc(/C=C2\SC(=O)N(CC(=O)Nc3ccccc3)C2=O)o1	rep nsp13 helicase	helicase ATPase activity, inhibitor, Kinase-Glo luminescence	–	60 min, added: 2.5 µM ATP	IC50	11 µM
O=C(O)c1ccccc1-c1c2cc(Br)c(=O)cc-2oc2[c]([Hg+])c(O)c(Br)cc12	rep main protease	binding, SPR	–	second site heterogeneous model	Kd	25.1 ± 0.15 µM
O=C1NN(c2ccccc2)C(=O)/C1=C/c1ccc(Sc2cccc3ccccc23)o1	rep nsp13 helicase	helicase ATPase activity, inhibitor, Kinase-Glo luminescence	–	60 min, added: 2.5 µM ATP	IC50	3 µM
Cn1cnc(Cn2c(=O)[nH]/c(=N\c3cc4cn(C)nc4cc3Cl)n(Cc3cc(F)c(F)cc3F)c2=O)n1	–	–	human, mild renal impairment, plasma	oral, 375 mg single dose	AUC(0-inf)	1430 µg·h/mL

Repeated from above:
Compound	tested on	assay	test system	conditions	quantity	result
Cc1ccc(C2CC(=O)N3CN(c4ccc(Br)cc4)CSC3=C2C#N)o1 (stereo not shown)	rep nsp13 helicase	helicase ATPase activity, inhibitor, Kinase-Glo luminescence	–	60 min, added: 2.5 µM ATP	IC50	66 µM
CN(C)c1ccc(N(Cc2cc(Cl)cs2)C(=O)Cc2cncc3ccccc23)cc1	rep main protease	enzyme activity, inhibitor	–	–	Ki	2.1 µM
CC(=O)NC1=NC(=O)/C(=C/c2cc(C)n(-c3cccc(C(=O)O)c3)c2C)S1	rep nsp13 helicase	helicase ATPase activity, inhibitor, Kinase-Glo luminescence	–	–	IC50	> 150 µM
Nc1nc2c(ncn2[C@H]2C[C@H](O)[C@@H](CO)O2)c(=S)[nH]1	rep nsp12 RdRp	RdRp activity, inhibitor	HEK293T	24 h, added: nsp7 and nsp8	EC50	1.08 µM
CC[C@H](NC(=O)OCc1ccccc1)C(=O)N[C@H](C(=O)N[C@@H](CC(C)C)C(=O)N(C)N(C#N)CCC(N)=O)C(C)(C)C	rep main protease	enzyme activity, inhibitor	–	–	Ki	0.0235 µM
